Measured values of several laboratories.
Each numbered part is a random draw from the data of one study; scales do not carry over between parts.
Sequence of UniProt Q13554 (whole entry, looked up): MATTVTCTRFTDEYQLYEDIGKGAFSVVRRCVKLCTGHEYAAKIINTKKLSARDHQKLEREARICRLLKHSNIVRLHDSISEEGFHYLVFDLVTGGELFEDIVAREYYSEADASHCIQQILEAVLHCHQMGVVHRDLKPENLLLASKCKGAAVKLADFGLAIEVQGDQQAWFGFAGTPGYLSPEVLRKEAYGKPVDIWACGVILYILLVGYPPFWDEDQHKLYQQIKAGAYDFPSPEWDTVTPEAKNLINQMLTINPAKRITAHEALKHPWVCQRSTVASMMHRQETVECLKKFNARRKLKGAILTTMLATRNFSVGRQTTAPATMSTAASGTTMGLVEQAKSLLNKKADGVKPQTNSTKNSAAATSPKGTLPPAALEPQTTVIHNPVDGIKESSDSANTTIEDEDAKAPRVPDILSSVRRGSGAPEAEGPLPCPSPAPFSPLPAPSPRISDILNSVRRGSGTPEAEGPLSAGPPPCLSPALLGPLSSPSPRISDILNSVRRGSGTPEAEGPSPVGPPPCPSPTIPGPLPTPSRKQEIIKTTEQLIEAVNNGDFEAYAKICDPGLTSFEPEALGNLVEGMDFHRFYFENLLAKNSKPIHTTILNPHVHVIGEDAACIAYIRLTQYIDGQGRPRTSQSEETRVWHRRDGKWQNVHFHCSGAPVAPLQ
Sequence of UniProt P17948 (whole entry, looked up): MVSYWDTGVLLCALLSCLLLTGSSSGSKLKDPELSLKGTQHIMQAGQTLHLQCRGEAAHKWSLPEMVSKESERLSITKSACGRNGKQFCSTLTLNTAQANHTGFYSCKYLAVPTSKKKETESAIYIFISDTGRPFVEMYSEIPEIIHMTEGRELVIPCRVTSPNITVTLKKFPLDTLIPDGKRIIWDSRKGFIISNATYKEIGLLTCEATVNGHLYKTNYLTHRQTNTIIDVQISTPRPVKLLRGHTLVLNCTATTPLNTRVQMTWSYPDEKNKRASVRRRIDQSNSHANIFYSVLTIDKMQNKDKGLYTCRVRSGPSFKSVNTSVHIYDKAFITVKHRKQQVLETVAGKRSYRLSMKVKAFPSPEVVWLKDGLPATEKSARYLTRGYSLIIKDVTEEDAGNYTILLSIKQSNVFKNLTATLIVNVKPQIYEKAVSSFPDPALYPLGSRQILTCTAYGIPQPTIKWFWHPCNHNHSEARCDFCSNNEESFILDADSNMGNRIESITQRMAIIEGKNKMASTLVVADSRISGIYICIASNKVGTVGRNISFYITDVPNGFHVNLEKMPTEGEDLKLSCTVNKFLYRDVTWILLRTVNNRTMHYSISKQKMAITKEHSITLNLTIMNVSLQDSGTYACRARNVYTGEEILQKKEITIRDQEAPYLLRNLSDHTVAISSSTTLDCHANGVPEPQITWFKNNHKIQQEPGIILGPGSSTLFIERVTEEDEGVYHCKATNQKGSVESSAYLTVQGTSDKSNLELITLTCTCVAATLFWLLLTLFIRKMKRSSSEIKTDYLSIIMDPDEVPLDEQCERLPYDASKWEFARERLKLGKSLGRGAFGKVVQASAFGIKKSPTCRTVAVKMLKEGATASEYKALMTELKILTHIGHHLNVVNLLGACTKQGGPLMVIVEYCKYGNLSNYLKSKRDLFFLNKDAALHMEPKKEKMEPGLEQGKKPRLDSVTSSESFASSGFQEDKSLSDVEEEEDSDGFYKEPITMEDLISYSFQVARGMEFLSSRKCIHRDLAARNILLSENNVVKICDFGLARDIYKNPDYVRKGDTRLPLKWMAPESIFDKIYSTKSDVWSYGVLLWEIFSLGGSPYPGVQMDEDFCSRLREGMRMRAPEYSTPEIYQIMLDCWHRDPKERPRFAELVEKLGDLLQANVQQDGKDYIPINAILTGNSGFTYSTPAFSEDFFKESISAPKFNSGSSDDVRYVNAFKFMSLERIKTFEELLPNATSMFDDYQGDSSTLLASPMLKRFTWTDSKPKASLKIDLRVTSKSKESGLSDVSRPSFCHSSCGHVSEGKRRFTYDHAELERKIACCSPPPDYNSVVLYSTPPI
Sequence of UniProt Q9Y2H1 (whole entry, looked up): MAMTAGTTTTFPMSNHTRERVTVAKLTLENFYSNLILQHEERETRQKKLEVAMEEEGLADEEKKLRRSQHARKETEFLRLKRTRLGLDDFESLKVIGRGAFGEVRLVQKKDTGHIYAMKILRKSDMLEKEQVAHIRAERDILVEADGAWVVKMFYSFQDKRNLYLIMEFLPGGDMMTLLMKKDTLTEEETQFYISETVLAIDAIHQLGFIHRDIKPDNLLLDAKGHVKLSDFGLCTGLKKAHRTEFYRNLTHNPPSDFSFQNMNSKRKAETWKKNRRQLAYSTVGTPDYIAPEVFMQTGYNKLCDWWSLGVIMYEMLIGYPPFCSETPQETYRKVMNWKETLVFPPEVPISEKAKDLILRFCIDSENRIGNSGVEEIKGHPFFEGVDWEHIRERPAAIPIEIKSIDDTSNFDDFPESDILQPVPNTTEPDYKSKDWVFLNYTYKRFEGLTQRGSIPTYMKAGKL
Sequence of UniProt Q59H18 (whole entry, looked up): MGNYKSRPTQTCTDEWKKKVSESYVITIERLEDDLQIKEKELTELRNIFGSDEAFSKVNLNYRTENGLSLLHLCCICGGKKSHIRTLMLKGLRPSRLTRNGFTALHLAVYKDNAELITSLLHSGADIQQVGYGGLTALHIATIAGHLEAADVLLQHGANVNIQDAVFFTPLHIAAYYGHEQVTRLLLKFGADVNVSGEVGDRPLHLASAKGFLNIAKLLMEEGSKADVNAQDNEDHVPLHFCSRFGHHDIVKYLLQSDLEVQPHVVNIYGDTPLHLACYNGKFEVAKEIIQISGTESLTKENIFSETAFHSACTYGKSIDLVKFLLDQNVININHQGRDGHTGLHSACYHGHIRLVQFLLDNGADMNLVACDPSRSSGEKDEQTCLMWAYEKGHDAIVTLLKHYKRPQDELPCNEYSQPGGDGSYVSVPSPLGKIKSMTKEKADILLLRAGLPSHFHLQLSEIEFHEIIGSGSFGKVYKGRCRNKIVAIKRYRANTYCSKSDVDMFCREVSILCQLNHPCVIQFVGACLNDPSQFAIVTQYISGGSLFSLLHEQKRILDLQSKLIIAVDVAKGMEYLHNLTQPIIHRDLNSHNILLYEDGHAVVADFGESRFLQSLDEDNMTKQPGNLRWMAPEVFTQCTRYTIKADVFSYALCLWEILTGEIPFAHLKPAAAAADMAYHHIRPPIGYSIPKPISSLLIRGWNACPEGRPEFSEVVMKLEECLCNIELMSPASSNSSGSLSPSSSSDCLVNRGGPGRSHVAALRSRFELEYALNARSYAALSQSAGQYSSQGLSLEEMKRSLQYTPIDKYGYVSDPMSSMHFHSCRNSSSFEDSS
Sequence of UniProt O14965 (whole entry, looked up): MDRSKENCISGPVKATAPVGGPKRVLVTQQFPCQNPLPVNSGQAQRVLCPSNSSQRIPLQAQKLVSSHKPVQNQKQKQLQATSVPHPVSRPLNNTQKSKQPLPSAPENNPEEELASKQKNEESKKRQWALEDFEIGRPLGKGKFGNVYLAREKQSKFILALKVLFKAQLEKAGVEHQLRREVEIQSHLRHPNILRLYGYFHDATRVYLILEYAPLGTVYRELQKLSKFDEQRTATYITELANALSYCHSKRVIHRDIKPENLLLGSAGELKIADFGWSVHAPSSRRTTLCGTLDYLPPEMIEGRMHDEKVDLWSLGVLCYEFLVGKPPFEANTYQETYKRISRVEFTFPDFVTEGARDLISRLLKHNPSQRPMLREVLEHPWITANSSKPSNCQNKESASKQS

Series 1
Compound: CC(C)n1cnc(-c2ccc(F)cc2)c1-c1ncc(C(=O)Nc2ccc(N3CCN(C)CC3)cc2)[nH]1
Technique: phase 2a trial
Host: idiopathic pulmonary fibrosis patients
For all arms, grade 5 emergent event: “patients with pulmonary embolism” read 0%.
all arms, grade 4 emergent event — “patients with pulmonary embolism”: 0%.
30 mg once daily, grade 1 emergent event — “patients with pulmonary embolism”: 0%.
The “patients with pulmonary embolism” was 0% (all arms, grade 3 emergent event).
The “patients with pulmonary embolism” was 0% (60 mg once daily, grade 2 emergent event).

Series 2
Host: mouse
Medium: microsomes or S9
Concentration: 2 µM
Time: 0.5 h
With Cc1noc(C)c1CC(=O)NCC12CCC=C1NC(=O)CC2 (centres unmarked) the remaining compound was 90.3%.
The remaining compound of CCOc1cc(=O)n2c(c1C(=O)NCCCOC(C)C)CCCCC2 is reported as 47.2%.
The remaining compound of CN1CCCc2c(c3cc(F)ccc3n2-c2ccc(F)cc2)C1 is reported as 71.7%.
For Cc1cccc(NC(=O)C2CCCN(S(=O)(=O)c3c[nH]c(C(=O)N4CCCC4)c3)C2)c1C (centres unmarked), the remaining compound was 3.22%.
With COc1ccccc1OCC(=O)N(Cc1ccc(-c2ccc(F)cc2)o1)C1CCS(=O)(=O)C1 (centres unmarked) the remaining compound was 5.15%.
With Fc1ccc(Cn2nnc3c2ncn2cnnc32)cc1 the remaining compound was 41.5%.

Series 3
Target: Vascular endothelial growth factor receptor 3 (FLT4, Homo sapiens, UniProt P35916)
Sequence of UniProt P35916 (whole entry, looked up): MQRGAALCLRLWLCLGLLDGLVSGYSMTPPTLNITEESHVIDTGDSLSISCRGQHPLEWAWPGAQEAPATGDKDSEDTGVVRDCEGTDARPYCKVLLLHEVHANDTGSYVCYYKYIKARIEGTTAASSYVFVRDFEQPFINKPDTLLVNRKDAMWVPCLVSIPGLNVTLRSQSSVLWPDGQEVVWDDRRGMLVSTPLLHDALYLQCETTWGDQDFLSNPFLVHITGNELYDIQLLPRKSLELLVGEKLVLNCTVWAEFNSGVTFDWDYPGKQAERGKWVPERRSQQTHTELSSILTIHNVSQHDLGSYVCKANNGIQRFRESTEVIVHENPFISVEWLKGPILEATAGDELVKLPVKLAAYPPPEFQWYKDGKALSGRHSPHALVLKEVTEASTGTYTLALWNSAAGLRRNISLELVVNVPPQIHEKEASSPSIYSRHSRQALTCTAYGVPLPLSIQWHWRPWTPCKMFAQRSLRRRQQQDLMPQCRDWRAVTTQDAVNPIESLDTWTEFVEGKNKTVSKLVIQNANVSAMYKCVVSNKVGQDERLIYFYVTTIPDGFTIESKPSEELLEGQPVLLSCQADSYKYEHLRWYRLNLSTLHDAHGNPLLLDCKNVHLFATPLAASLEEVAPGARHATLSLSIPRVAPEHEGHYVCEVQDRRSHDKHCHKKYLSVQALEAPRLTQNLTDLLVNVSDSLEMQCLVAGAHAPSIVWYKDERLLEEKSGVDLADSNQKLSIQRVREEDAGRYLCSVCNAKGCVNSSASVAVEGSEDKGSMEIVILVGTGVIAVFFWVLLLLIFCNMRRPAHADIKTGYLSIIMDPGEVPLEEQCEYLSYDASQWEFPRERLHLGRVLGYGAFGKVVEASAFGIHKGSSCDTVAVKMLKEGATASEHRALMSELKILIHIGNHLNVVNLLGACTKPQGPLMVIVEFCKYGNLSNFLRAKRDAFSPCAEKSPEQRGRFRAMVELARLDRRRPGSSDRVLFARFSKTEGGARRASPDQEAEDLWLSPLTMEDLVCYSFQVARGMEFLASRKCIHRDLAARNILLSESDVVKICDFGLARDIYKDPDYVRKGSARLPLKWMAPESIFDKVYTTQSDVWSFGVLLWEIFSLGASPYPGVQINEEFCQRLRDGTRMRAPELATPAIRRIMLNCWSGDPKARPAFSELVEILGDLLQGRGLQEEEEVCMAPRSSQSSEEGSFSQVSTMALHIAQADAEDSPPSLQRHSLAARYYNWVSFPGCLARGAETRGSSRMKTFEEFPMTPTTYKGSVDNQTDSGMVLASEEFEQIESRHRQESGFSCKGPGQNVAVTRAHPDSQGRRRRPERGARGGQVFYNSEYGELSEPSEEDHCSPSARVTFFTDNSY
Observed: enzyme activity
Action: inhibitor
Concentration: 0.5 µM
Reference: control
With CCCCc1c(-c2ccc(O)cc2)[nH]c2nccnc12 the remaining activity was 77.4%.
For N#CC(c1ccnc(NCCc2cccnc2)n1)c1nc2ccccc2s1 (centres unmarked), the remaining activity was 86.1%.
With CC(C)N(CCC(=O)c1ccc2ccccc2c1)Cc1ccccc1 the remaining activity was 94%.
The remaining activity of CC(C)n1cnc2c(Nc3cccc(Cl)c3)nc(NCCO)nc21 is reported as 92.6%.
Nc1nc(Nc2ccc(S(N)(=O)=O)cc2)nn1C(=S)Nc1c(F)cccc1F has a remaining activity of 3.75%.
With CC(C)(C)c1nc2c3cc[nH]c(=O)c3c3cc(F)ccc3c2[nH]1 the remaining activity was 71.2%.
With O=C(O)/C=C/c1cc(Br)c(Br)c(Br)c1Br the remaining activity was 98.2%.
O=Nc1c(-c2c(O)[nH]c3ccccc23)[nH]c2ccccc12 gave a remaining activity of 53%.
FC(F)(F)c1ccc(/C=C/c2nc(COc3ccc(CCCCn4ccnn4)cc3)co2)cc1 has a remaining activity of 98%.
COc1cc2c(N3CCN(C(=O)Nc4ccc(OC(C)C)cc4)CC3)ncnc2cc1OCCCN1CCCCC1 gave a remaining activity of 94.6%.

Series 4
Structure (SMILES): C[C@@]1(Cc2ccc(C#N)cc2)C(=O)N(c2cc(Cl)cc(Cl)c2)c2ncc(C(=O)NC3(c4nc(C5CCC5)no4)CC3)n21
Observed: cell-free assay
Technique: competition with immobilised ligand
Concentration: 1 µM
It gave 92% for remaining binding (Aurora kinase A (AURKA, Homo sapiens, UniProt O14965)).
The remaining binding was 95% (Tyrosine-protein kinase ABL1, phosphorylated (ABL1, Homo sapiens, UniProt P00519, Y253F)).
It gave 90% for remaining binding (CAMK2B (Homo sapiens, UniProt Q13554)).
It gave 100% for remaining binding (KIT (Homo sapiens, UniProt P10721, D816H)).
For FLT1 (Homo sapiens, UniProt P17948): remaining binding read 99%.
The remaining binding was 72% (TNNI3K (Homo sapiens, UniProt Q59H18)).
For FLT3 (Homo sapiens, UniProt P36888): remaining binding read 98%.
For STK38L (Homo sapiens, UniProt Q9Y2H1): remaining binding read 48%.

A few entries again (series 2):
The remaining compound of CCOc1cc(=O)n2c(c1C(=O)NCCCOC(C)C)CCCCC2 is reported as 47.2%.
The remaining compound of CN1CCCc2c(c3cc(F)ccc3n2-c2ccc(F)cc2)C1 is reported as 71.7%.
For Cc1cccc(NC(=O)C2CCCN(S(=O)(=O)c3c[nH]c(C(=O)N4CCCC4)c3)C2)c1C (centres unmarked), the remaining compound was 3.22%.
With COc1ccccc1OCC(=O)N(Cc1ccc(-c2ccc(F)cc2)o1)C1CCS(=O)(=O)C1 (centres unmarked) the remaining compound was 5.15%.
With Fc1ccc(Cn2nnc3c2ncn2cnnc32)cc1 the remaining compound was 41.5%.
